Measurements of several laboratories.
Each numbered part is a random draw from the data of one study; scales do not carry over between parts.

Set 1 — method: aptamer microarray, sandwich; form: DNA with 2'F-ANA; medium: in vitro; concentration: 200 nM; added: Cy3 exosite-II aptamer, 400 nM; direction: higher = stronger binding
Target: Prothrombin, mature alpha-thrombin (F2, Homo sapiens, UniProt P00734)
Notes: whole 15-mer aptamer, many near background
`GGTTGGTGTGGTTGG (2'F-ANA at 2 3 4 6 10 13 14)` — result for “mean fluorescence intensity”: 173 a.u.
`GGTTGGTGTGGTTGG (2'F-ANA at 2 4 10)`: “mean fluorescence intensity” 105 a.u.
For `GGTTGGTGTGGTTGG (2'F-ANA at 4 7 8 9 10 12 13 14)`, “mean fluorescence intensity” read 69.4 a.u.

Set 2 — method: protein binding microarray; form: double-stranded DNA, one strand shown; medium: in vitro; concentration: not given; reference: not given; direction: higher = stronger binding
Target: Histone acetyltransferase KAT6A, both winged helices, GST fusion (KAT6A, Homo sapiens, UniProt Q92794, residues 1-181)
Notes: 8-mer, flanks averaged, mean of 2 arrays, mostly near background
Target sequence (chain): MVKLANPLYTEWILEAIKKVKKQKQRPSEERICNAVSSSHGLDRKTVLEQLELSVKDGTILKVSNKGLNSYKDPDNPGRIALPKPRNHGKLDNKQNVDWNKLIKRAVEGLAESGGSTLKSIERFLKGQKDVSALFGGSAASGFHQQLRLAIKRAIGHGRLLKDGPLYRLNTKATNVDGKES
For `CACGTGTA`, the E-score was -0.0211.
`CGAGCCAC` has an E-score of 0.0211.
With `CAGTCGTA` the E-score was -0.0742.

Set 3 — method: protein-binding microarray; form: double-stranded DNA, one strand shown; medium: in vitro; concentration: 2200 nM top; notes: 60-bp whole probe; added: salmon DNA 0.4 mg/ml; reference: random background probes; direction: higher = stronger binding
Target: Interferon regulatory factor 7, full length, phosphomimetic (IRF7, Homo sapiens, UniProt Q92985, residues 1-503, S471D/S472D/S475D/S476D/S477D/S483D/S484D/S487D)
Residues (chain): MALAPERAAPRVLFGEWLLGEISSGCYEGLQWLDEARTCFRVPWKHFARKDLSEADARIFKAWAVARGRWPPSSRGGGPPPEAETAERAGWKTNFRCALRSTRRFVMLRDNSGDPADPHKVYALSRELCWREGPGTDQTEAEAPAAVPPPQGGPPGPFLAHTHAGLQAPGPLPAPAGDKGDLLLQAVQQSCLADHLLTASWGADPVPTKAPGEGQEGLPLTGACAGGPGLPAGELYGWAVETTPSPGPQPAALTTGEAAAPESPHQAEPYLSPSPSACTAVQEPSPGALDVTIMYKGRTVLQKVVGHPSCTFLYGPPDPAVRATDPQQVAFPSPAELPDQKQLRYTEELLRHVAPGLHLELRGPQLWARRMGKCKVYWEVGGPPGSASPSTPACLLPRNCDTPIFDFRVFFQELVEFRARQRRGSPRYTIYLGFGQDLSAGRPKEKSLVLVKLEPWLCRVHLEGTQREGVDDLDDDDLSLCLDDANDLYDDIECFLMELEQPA
For `GCCTAGCACTCAAACATCTACAATGGCACTGTGCTAGTCTTGATTCGCTTGACGCTGCTG`, “fitted relative affinity” read -0.435 z-score.
`GCCTAGCACTCAGATTTCAGGAATTGAACTGTGCTAGTCTTGATTCGCTTGACGCTGCTG` — result for “fitted relative affinity”: -0.24 z-score.
For `GCCTAGCACGATGATTTCAGTTTCGAGACGTGCTAGGTCTTGATTCGCTTGACGCTGCTG`, “fitted relative affinity” read 6.13 z-score.

Mixed results
With `PhoQ, residues 284 288 289 292 302 303 WVSSAF` the fold induction was 13 (PhoP, residues 12 14 15 18 19 VQGLL (Escherichia coli, UniProt P23836); Sort-seq, item: YFP reporter; E. coli; PhoQ-PhoP variant library, added: 10 µM Mg2+; reference: high Mg2+ state, higher = stronger signaling).

For quick reference, copied from above (mixed results):
With `PhoQ, residues 284 288 289 292 302 303 WVSSAF` the fold induction was 13 (PhoP, residues 12 14 15 18 19 VQGLL (Escherichia coli, UniProt P23836); Sort-seq, item: YFP reporter; E. coli; PhoQ-PhoP variant library, added: 10 µM Mg2+; reference: high Mg2+ state, higher = stronger signaling).
